Measured values from different studies.
Numbered parts are unrelated; each lists some results of a single study. Positions count from the first letter of the parent shown.

Series 1
Target: RNA binding protein fox-1 homolog 2, RRM domain, GST-SBP tag (RBFOX2, Homo sapiens, UniProt O43251-10, residues 100-194)
Technique: RNA Bind-n-Seq
Form: RNA
Matrix: in vitro
Tested at: 365 nM
Setting: natural RNA segment, single round, ends assumed
Relative to: no-protein control
Reading: higher = stronger binding
Constant ends, left off below: GGGAGUUCUACAGUCCGACGAUC … UGGAAUUCUCGGGUGCCAA
Construct (chain): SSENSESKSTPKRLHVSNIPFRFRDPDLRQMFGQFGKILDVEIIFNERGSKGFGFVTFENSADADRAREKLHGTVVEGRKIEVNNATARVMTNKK
| Oligonucleotide | RBNS enrichment (R) |
| --- | --- |
| AGAGACAAUCCUCUUCAUGGGCCAAGUGAUGGAGCCUUGACAGUGGGAAGAGACGCCUUCAUUUGGGACGAAACUGGAGAUGUUAUAAGCAGAAACUCUGAAGAAAAGGA | 0.487 |
| UUCCCUUGGGGCUUGCCGGCCAGACUUCUCUCCCCUGCGGCUCCCACCUCUGCCUGACCCCAGCCUUAAACAUAGCCCCUGGCCAGAGGCCUUGCUGGGUGGAGCCUCUG | 0.252 |
| ACUGGAAGGAGAGGUUCGCUCCCUCCUUAAGGACAUAAGUGAGAAAGUUGCGGUUUACAGCACCUGCUUAUAACAGGAAGGGGCUGUAGAGGGGCUCGGUGACCAAGGUA | 0.661 |
| GCUCCUUGAGGGCAGGGAUUAUAACUGUAACAUUUGUAUCACUGCACUCGCUUUAGUGCCUAGUACAGUGCUGAGCACACAGUAGGUGUUUAAUAAAUGCUUGUUAAAUU | 0.251 |
| UGAAUGGCUAAGGGAACAUCUGGAAAGGAAGGAAAAUGAGCCCUAAAGGUUUUUUGGUUGCUUGUUUUUGUUUCUUUUUCUUUCUUGUUUCCUUUUUUGUUUUUAAAUCC | 0.448 |
| CUGGCUUUUGCAGGCACCCUCUGACCUCAGCAGAGCUCCUGGGCCUGCUGCCUGCACACCACAUCGCCUACCUACAAUGCCAAAGCCUCACUGUCACCCUUUCUGCCUUG | 0.813 |
| UCUCCUGAACCAAACAAACCUGUUGGUUGGGAGACUGCCCAGACAUGAUUGAUGACGGGUUCCCGCCUGCUGUCCCCUCCCUGAUCACACAGCUAACGAGGCUGCCUCCA | 0.943 |
| AGCAGGCCUGGAAAUGAAUGGAACUAGUACUCCUGAGAAAUAAAUUGUAUAUCCCCCAAAUUAAAAUUUACUUCAAAGGUGUUAAAGAUUUCAUGUCCUAUAUUAAAGUA | 0.733 |
| AAAUAACAUCAAGUAACAUCUGUAUCAGGCCCUACAUAGAACAUACAGUUGAGUGGGAGUAAACAAAAAGAUAAACAUGCGUGUUAAUGGCUGUUCGAGAGAAAUCGGAA | 0.318 |
| UUGGAGGACUUUAUGGAAUUUAAGAAAUACAUUUUGUGUGCAUAUUGUUUCAUAGCAAGAAUUCGUUGCAAAAAUGCUUUAUUUUUGAACAAUGCUUGGAAAUAUUAUGU | 0.51 |
| UUGCCACCACCGUCACUCAGCCCUGGGCGUAGCCGGACAGGAGGAGAGCAGUGAUGCGGAUGGGUACCCGGGCACACCAGCCCUCAGAGACCUGAGCUCUUCUGGCCACG | 0.281 |
| CCUGGAUGCACCUGAACUCGUCCCCCUCGUCGAGGGGCAGGAGGGCAUGGACAUGGGCUUCUUCACGGAGAGCCAGGGCGUGUGGGGAUCUUGCCAGAGCUGAGCUGAGC | 1.23 |

Series 2
Target: CCNF, cyclin fold, Cln2 fusion (human)
Technique: yeast growth competition, sequencing
Matrix: yeast
Setting: strong parent motif
Relative to: not given
Reading: higher = stronger binding
Starting sequence: AKAP12 docking peptide (human); GSPLKKLFTSTGL
| Substitution | normalised enrichment score |
| --- | --- |
| K5A L7A | -0.265 |
| T9A | 1.41 |
| L7A | -0.601 |
| F8L | 0.913 |
| K5R | 0.837 |
| F8A | 0.0878 |
| L4A | 0.474 |
| T11A | 1.11 |
| G12A | 0.686 |
| K6A | 0.28 |

Series 3
Target: Interferon regulatory factor 5, full length, phosphomimetic (IRF5, Homo sapiens, UniProt Q13568-2, residues 1-514, S451D/S453D/S456D/S462D)
Technique: protein-binding microarray
Form: double-stranded DNA, one strand shown
Matrix: in vitro
Tested at: 940 nM top
Setting: 60-bp whole probe
Together with: salmon DNA 0.4 mg/ml
Relative to: random background probes
Reading: higher = stronger binding
Constant ends, left off below: GCCTAGCAC … GTCTTGATTCGCTTGACGCTGCTG
| Oligonucleotide | fitted relative affinity |
| --- | --- |
| GCCGGTATCGGGTATCGGGACGTGCTA | 6.26 z-score |
| TTTTTTTTTTTTTTTTACTTGTGCTAG | 1.02 z-score |
| TTAGATTTCAGGCTGGATTAGTGCTAG | -0.256 z-score |
| TGGCAGCATTCTTGGAAATCGTGCTAG | -0.675 z-score |
| TTAGATCTCATTTTCGATTAGTGCTAG | 2 z-score |
| TTAGATCTCAGTTTCGAATAGTGCTAG | 3.84 z-score |
| CTTGCCCACTTCTGTGACAGGTGCTAG | -0.0949 z-score |
| GACGAAGTGAGTCTCGAGACGTGCTAG | 0.957 z-score |
| ATTGTTTCCTTCCTCTTTTAGTGCTAG | 2.14 z-score |
| TTAGGTATCCACTATCGGTTAGTGCTA | 1.03 z-score |
| GACGGCCTGGGGACTGGGGACGTGCTA | -0.713 z-score |
| TTTTTTCTACTTCTGTTTTTGTGCTAG | 1.92 z-score |
| TAAGGTTTCGGGTTTCGGTTAGTGCTA | 9.12 z-score |
| ATCAGTTTAATATCTAAGATTGTGCTA | 0.335 z-score |
| GACGATCCCAGTATCGAGACGTGCTAG | 1.83 z-score |
| ATCGTAAGCAAAAATGATTGGTGCTAG | -0.118 z-score |
| TTAGGACCGGGTTTCGGTTAGTGCTAG | 6.95 z-score |

Series 4
Target: ABI1, truncated, D143A, DHFR fusion (Arabidopsis thaliana)
Technique: DHFR PCA, deep sequencing
Matrix: yeast
Setting: methotrexate growth selection, single substitutions
Together with: (+)-ABA 0.39 µM
Relative to: wild-type fitted maximum
Reading: higher = stronger binding
Starting sequence: PYL1, truncated, DHFR fusion (Arabidopsis thaliana); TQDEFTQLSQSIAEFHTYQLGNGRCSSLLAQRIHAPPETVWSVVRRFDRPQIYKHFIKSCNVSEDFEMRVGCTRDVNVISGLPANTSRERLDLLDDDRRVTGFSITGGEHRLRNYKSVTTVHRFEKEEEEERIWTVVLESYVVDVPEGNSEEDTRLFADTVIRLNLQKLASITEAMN; partner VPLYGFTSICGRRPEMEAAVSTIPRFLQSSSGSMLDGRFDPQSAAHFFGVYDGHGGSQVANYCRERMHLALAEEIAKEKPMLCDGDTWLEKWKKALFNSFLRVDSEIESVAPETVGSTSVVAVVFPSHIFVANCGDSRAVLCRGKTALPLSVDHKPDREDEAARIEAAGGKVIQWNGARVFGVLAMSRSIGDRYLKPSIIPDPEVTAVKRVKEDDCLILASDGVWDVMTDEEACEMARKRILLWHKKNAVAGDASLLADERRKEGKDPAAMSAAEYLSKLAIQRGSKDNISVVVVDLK
| Substitution | relative binding score |
| --- | --- |
| S63V | 20.7% |
| I57M | -3.45% |
| Q19P | 57.6% |
| R49K | 58.9% |
| S63C | 40.9% |
| P146K | -15.8% |
| H110F | 21.4% |
| F47Q | -15.3% |
| F66Y | 18.2% |
| T73Y | 63.9% |
| K168D | -6% |
| E129V | 28.9% |
| H55P | 104% |
| E131W | 21.9% |
| D97G | 17.9% |
| Q2R | 38.6% |
| K54Q | 8.75% |

Series 5
Target: Transcriptional repressor CTCF (CTCF, Homo sapiens, UniProt P49711, residues 1-727, full length assumed)
UniProt P49711, sequence (whole entry, looked up): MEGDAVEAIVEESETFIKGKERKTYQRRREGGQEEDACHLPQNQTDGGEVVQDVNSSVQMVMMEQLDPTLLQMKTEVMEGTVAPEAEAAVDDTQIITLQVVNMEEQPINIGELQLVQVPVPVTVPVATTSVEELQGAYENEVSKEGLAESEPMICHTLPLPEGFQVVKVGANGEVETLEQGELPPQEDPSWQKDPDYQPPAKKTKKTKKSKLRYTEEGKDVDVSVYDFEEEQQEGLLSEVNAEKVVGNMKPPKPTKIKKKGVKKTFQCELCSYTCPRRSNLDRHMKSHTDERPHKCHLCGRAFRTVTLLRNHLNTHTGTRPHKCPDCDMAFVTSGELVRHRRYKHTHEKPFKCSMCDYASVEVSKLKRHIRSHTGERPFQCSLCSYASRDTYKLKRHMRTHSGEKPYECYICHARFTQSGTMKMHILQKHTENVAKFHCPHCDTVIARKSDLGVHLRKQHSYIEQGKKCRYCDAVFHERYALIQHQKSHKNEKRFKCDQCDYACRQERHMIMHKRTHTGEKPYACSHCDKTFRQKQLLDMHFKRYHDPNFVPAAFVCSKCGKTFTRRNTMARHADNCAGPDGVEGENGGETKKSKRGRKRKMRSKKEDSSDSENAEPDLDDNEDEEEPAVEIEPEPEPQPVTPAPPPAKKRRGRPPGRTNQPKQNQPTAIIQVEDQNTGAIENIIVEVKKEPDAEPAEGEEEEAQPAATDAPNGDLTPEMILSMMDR
Technique: protein-binding microarray
Form: double-stranded DNA, one strand shown
Matrix: in vitro
Tested at: not given
Setting: k-mer, scored over probes, only values ≥0.25
Reading: higher = stronger binding
| Oligonucleotide | E-score |
| --- | --- |
| CAAATATA | 0.292 |
| ACAAATGT | 0.286 |
| ATTAAAAT | 0.307 |
| AAATATAG | 0.294 |
| TAACATTA | 0.296 |
| CGCGCAAA | 0.397 |
| TAATTGTA | 0.287 |
| GAGGCGCA | 0.294 |
| ATACATGA | 0.275 |
| AATACATT | 0.253 |
| AACGATAT | 0.257 |
| AACTTAAC | 0.256 |
| AAATACAA | 0.323 |
| ATTTAATA | 0.344 |
| CATGCATG | 0.281 |
| AACATGTA | 0.344 |
| GGTAAACA | 0.294 |
| GTGTAACA | 0.25 |
| AGTGAGTA | 0.277 |
| CATGCGCC | 0.298 |
| CAACATAA | 0.316 |
| ATTAATAA | 0.29 |
| AAATACGT | 0.262 |
| GTATGCGA | 0.27 |
| GATGTAAC | 0.312 |

Series 6
Target: Histone acetyltransferase KAT6A, winged helix 1, GST fusion (KAT6A, Homo sapiens, UniProt Q92794, residues 1-85)
Technique: protein binding microarray
Form: double-stranded DNA, one strand shown
Matrix: in vitro
Tested at: not given
Setting: 8-mer, flanks averaged, mean of 2 arrays, mostly near background
Relative to: not given
Reading: higher = stronger binding
Construct (chain): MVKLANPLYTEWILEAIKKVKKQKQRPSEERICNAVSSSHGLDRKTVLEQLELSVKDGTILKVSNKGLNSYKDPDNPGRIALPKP
| Oligonucleotide | E-score |
| --- | --- |
| CTTTATAC | 0.0419 |
| CCATCGGC | 0.24 |
| CCCTAACC | 0.138 |
| ACAAATAA | -0.176 |
| AAAGACGC | 0.132 |
| CGGCGGGA | 0.466 |
| AAGTCCTC | -0.235 |
| GATAGGTA | -0.114 |
| GCTTAACC | -0.0123 |
| ACGATGCA | -0.118 |
| AGTTTGGA | -0.161 |
| ATTGTGAC | -0.203 |
| GGATTAAC | 0.109 |
| CCATTCTC | -0.231 |
| AGCTTAAC | -0.144 |
| ATTCGGGA | -0.0572 |
| GGCGATGA | 0.216 |
| AGGCGATA | -0.0454 |
| TCGTGCCA | -0.0911 |
| ACGGACAA | 0.203 |
| AAGGCTCA | -0.233 |
| CTACAGCA | -0.14 |
| CCATGATA | -0.111 |
| AACATCGT | -0.00613 |
| GAAGAAGC | -0.021 |

A few entries again (series 5):
| Oligonucleotide | E-score |
| --- | --- |
| TAACATTA | 0.296 |
| CGCGCAAA | 0.397 |
| TAATTGTA | 0.287 |
| GAGGCGCA | 0.294 |
| ATACATGA | 0.275 |
| AATACATT | 0.253 |
| AACGATAT | 0.257 |
| AACTTAAC | 0.256 |
| AAATACAA | 0.323 |
| ATTTAATA | 0.344 |
| CATGCATG | 0.281 |
| AACATGTA | 0.344 |
| GGTAAACA | 0.294 |
| GTGTAACA | 0.25 |
| AGTGAGTA | 0.277 |
